Measurements collected from several papers.
Lines come from different studies, so protocols differ. Several values in a cell are separate wells, animals, samples, runs or records.
ADRA2C: Alpha-2C adrenergic receptor (ADRA2C, Homo sapiens, UniProt P18825)
Chain of UniProt P18825 (whole entry, looked up): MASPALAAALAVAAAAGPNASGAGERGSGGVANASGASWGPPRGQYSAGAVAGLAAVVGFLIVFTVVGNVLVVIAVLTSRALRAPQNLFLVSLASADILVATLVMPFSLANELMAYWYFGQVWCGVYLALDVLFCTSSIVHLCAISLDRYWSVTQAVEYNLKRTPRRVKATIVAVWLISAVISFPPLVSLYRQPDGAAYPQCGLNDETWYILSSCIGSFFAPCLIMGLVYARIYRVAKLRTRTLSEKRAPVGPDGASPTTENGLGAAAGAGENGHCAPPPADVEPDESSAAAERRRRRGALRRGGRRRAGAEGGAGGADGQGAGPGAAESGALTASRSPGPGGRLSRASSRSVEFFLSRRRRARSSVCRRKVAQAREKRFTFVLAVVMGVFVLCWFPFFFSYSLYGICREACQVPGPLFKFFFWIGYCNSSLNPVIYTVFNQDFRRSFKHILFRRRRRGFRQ
CES2: Cocaine esterase (CES2, Homo sapiens, UniProt O00748)
Chain of UniProt O00748 (whole entry, looked up): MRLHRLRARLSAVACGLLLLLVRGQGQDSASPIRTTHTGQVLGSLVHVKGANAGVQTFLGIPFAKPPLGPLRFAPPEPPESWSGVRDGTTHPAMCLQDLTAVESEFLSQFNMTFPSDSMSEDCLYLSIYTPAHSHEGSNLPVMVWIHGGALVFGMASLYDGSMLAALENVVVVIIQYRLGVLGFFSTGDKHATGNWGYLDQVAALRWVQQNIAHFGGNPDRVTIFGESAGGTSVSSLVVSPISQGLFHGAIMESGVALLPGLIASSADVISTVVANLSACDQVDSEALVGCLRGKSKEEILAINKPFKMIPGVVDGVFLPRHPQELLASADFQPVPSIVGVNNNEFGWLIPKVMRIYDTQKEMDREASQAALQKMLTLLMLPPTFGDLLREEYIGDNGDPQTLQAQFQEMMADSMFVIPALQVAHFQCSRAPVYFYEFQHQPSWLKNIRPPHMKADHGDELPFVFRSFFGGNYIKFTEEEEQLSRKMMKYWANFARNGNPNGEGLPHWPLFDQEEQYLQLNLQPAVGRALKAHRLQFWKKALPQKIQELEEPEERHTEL
DRD3: D(3) dopamine receptor (DRD3, Homo sapiens, UniProt P35462)
Chain of UniProt P35462 (whole entry, looked up): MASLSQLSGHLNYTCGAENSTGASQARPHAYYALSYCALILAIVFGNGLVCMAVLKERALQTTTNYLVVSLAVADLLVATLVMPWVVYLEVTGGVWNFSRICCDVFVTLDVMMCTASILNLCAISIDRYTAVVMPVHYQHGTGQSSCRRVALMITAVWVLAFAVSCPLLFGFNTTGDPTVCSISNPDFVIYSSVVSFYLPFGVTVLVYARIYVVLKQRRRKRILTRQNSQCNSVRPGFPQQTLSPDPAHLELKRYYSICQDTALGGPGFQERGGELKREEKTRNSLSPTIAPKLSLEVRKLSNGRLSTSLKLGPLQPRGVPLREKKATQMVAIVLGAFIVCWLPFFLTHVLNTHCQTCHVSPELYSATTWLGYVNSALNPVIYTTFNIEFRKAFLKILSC
SCTR: Secretin receptor (SCTR, Homo sapiens, UniProt P47872)
Chain of UniProt P47872 (whole entry, looked up): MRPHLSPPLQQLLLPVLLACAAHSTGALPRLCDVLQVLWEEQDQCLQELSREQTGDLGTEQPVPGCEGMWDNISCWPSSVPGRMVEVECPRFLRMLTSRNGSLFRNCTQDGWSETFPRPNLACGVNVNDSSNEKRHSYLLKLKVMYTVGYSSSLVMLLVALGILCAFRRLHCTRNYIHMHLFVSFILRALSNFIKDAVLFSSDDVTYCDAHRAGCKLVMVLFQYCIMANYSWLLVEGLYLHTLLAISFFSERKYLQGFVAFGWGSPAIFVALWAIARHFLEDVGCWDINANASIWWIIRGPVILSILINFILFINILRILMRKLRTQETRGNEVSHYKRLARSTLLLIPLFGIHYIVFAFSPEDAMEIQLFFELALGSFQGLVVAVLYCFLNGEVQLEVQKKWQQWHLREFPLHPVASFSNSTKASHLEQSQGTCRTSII
HDAC6: Protein deacetylase HDAC6 (HDAC6, Homo sapiens, UniProt Q9UBN7)
Chain of UniProt Q9UBN7 (whole entry, looked up): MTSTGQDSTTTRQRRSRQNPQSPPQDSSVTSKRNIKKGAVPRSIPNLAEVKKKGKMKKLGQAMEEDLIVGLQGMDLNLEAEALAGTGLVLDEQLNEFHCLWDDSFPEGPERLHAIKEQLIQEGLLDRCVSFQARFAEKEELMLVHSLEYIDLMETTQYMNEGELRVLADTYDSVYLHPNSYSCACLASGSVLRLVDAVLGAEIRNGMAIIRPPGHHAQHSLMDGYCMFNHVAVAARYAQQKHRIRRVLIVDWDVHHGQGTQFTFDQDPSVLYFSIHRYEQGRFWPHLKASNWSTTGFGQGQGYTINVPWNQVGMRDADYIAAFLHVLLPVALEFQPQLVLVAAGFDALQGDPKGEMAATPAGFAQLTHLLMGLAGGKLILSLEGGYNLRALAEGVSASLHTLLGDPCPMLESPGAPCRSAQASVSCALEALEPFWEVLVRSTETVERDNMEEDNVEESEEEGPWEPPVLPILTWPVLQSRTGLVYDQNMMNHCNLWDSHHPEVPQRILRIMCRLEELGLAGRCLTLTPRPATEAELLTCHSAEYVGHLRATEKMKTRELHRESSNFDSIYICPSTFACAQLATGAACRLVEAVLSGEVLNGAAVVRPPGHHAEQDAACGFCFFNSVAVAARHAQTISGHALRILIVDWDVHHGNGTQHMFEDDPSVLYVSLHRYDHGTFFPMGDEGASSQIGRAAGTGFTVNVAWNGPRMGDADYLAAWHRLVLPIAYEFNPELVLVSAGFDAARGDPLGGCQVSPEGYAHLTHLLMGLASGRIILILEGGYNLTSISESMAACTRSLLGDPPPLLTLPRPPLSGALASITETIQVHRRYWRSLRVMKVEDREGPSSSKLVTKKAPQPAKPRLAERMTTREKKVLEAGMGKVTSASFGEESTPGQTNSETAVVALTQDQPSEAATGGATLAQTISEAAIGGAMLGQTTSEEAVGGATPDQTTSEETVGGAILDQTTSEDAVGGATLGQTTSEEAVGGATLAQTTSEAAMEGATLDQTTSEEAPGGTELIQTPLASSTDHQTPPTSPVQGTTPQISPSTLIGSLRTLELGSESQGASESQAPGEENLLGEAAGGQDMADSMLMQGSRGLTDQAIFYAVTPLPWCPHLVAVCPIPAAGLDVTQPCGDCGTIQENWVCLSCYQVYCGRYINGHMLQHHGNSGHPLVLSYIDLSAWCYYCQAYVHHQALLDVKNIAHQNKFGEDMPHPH
HDAC8: Histone deacetylase 8 (HDAC8, Homo sapiens, UniProt Q9BY41)
Chain of UniProt Q9BY41 (whole entry, looked up): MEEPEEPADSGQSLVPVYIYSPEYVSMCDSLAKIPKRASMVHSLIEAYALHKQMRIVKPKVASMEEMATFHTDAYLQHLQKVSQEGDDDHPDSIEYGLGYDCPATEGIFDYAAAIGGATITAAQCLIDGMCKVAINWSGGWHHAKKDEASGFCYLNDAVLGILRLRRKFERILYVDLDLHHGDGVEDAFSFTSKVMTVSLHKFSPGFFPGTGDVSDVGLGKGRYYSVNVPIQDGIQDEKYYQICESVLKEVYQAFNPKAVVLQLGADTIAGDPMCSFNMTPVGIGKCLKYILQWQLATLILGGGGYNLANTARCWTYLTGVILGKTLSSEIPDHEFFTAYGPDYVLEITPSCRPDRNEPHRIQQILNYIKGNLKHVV
ADRA1A: Alpha-1A adrenergic receptor (ADRA1A, Homo sapiens, UniProt P35348)
Chain of UniProt P35348 (whole entry, looked up): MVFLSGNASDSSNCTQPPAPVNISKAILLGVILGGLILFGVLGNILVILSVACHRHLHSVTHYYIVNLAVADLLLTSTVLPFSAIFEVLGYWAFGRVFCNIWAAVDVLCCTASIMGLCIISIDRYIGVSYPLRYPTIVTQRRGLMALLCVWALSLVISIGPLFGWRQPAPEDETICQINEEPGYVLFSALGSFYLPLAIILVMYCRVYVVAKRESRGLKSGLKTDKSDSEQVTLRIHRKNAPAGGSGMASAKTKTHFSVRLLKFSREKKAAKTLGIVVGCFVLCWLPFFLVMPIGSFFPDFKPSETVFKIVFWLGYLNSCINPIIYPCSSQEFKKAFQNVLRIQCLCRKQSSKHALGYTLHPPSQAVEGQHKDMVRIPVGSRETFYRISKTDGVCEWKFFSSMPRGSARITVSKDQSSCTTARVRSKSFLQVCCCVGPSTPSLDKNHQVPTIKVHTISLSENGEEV
ADRA2B: Alpha-2B adrenergic receptor (ADRA2B, Homo sapiens, UniProt P18089)
Chain of UniProt P18089 (whole entry, looked up): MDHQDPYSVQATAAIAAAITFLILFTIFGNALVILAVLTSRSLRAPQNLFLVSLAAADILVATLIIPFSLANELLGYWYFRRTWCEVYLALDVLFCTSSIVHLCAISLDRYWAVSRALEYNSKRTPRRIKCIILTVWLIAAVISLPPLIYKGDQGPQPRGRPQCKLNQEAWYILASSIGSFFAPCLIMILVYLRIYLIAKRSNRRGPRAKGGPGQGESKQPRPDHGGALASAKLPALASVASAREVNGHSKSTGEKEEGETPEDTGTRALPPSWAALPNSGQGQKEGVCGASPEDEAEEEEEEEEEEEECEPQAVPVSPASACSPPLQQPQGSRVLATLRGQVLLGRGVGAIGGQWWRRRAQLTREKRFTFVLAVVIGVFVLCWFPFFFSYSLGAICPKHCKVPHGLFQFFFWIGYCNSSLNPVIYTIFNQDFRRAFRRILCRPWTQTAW
Chain of UniProt P0DMS8 (whole entry, unmodified, looked up): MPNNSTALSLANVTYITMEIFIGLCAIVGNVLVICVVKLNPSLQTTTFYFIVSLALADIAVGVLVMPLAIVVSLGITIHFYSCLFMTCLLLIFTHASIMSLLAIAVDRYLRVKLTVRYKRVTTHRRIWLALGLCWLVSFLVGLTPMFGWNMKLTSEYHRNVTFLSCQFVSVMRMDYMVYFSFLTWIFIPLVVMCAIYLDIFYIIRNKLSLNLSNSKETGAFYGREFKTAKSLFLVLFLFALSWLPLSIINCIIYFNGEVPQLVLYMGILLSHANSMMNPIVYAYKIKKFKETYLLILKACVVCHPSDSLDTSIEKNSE
Chain of UniProt Q8WZ84 (whole entry, unmodified, looked up): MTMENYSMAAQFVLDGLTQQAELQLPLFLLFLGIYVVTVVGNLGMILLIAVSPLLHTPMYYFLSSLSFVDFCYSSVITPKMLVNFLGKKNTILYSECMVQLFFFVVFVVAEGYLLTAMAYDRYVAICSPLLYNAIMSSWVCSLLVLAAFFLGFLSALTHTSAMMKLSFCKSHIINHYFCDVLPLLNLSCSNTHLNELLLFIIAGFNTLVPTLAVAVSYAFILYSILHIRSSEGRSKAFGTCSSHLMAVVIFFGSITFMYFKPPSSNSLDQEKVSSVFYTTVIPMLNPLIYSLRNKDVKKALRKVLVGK

Cc1cc(Oc2ncccc2CN2CCN(c3ccc(F)cc3F)CC2)ccc1-c1c(C)c(=O)[nH]c(=O)n1C
Ki (ADRA2C; ligand displacement, radioligand): 0.0894 µM

CCCN(O)N=Nc1ccc(S(=O)(=O)Nc2nccs2)cc1
inhibition (ABTS scavenging; 300 µg/mL): 64.6%

CC(=O)[C@H]1CC[C@H]2[C@@H]3CCC4=CC(=O)CC[C@]4(C)[C@H]3CC[C@]12C
IC50 (CES2; enzyme activity, inhibitor, fluorescence; with preincubation): > 100 µM

CN(C)c1ncnc2c1ncn2[C@@H]1O[C@H](CO)[C@@H](O)[C@H]1O
EC50 (ADORA3 (Homo sapiens, UniProt P0DMS8, V169F); G protein activation, agonist): 35 µM

COc1cc2ncnc(Nc3ccc(Oc4ccccc4)cc3)c2cc1OC
AC50 (SMUG1 (Homo sapiens, UniProt Q53HV7); enzyme activity, activator, fluorescence): 24 µM

C1=C/COCc2cc(ccc2OCCN2CCCC2)Nc2nccc(n2)-c2cccc(c2)COC/1
remaining binding (MET (Homo sapiens, UniProt P08581, M1250T); binding; 0.1 µM): 97%

COc1cc(-c2cncc3c2CN(C)Cc2cc(N4CCNCC4)ccc2-3)cc(OC)c1OC
remaining activity (HIPK1 (Homo sapiens, UniProt Q86Z02); enzyme activity, inhibitor; 1 µM): 107%

Cc1cc([C@@H](C)Nc2ccccc2C(=O)O)c2nc(N3CCC(F)(F)CC3)c(C#N)c(=O)n2c1
remaining binding (AXL (Homo sapiens, UniProt P30530); binding, competition with immobilised ligand; 10 µM): 83%

Cc1ccc(N(O)N=Nc2ccc(S(=O)(=O)Nc3cc(C)on3)cc2)cc1
inhibition (ABTS scavenging; 180 µg/mL): 40.2%

Cc1[nH]c(C)c(S(=O)(=O)Nc2ccc(Cl)c(C(F)(F)F)c2)c1C(=O)N1CCCC1
IC50 (DRD3; β-arrestin recruitment, antagonist): 3.4 µM

O=C(NO)c1cncc(OS(=O)(=O)Oc2ccc(-n3ccnc3)cc2)c1
Ki (HDAC5 (Homo sapiens, UniProt Q9UQL6); enzyme activity, inhibitor, fluorescence): 1.17 µM

CCc1ccc(C2=CC(C)(C)Sc3ccc(C#Cc4ccc(C(=O)O)cc4)cc32)cc1
EC50 (RARB (Homo sapiens, UniProt P10826); reporter gene, antagonist, luciferase): 0.00034 µM

Cc1[nH]c(C)c(S(=O)(=O)Nc2ccc(C(=O)C3CC3)c(Cl)c2)c1C(=O)N1CCC(F)(F)C1
IC50 (DRD3; G protein activation, antagonist, BRET): 6.6 µM

CC1=NN(/C(=N\c2ccc(C)cc2)Nc2nnc(C)s2)C(c2ccc(C)cc2)S1 (stereo not drawn)
EC50 (SCTR; cAMP, agonist, TR-FRET): 3.1 µM

Cc1[nH]c(C)c(S(=O)(=O)Nc2ccc(C3CC3)c(Cl)c2)c1C(=O)N1CCC(F)(F)C1
IC50 (DRD3; G protein activation, antagonist, BRET): 6 µM

CC1=NN(/C(=N/c2nnc(C)s2)Nc2ccc(C)c(C)c2)C(c2ccc(C(C)(C)C)cc2)S1 (stereo not drawn)
EC50 (SCTR; cAMP, agonist, TR-FRET): 0.4 µM

CCN(CC)S(=O)(=O)c1c(C)[nH]c(C)c1C(=O)Nc1ccc(C(F)(F)F)c(Cl)c1
IC50 (DRD3; G protein activation, antagonist, BRET): > 10 µM

O=C(NO)c1cc(F)cc(OS(=O)(=O)Oc2ccc(-n3ccnc3)cc2)c1
Ki (HDAC6; enzyme activity, inhibitor, fluorescence): 0.045 µM

C=CC(=O)N1CCC(COCC(=O)N2CCN(c3nc(-c4cnc(N)nc4C(F)F)nc(N4CCOC[C@@H]4C)n3)CC2)CC1
remaining binding (MAPK11 (Homo sapiens, UniProt Q15759); binding, competition with immobilised ligand; 1 µM): 100%

Cc1cnc(-c2ccc(-c3ccc(NC(=O)Nc4c(F)cc(F)cc4F)cc3F)c3c2C(=O)NC3)[nH]1
Kd (MAP2K3 (Homo sapiens, UniProt P46734); binding, competition with immobilised ligand): 0.0058 µM

Cc1[nH]c(C)c(S(=O)(=O)Nc2cc(Cl)c(Cl)cc2Cl)c1C(=O)N1CCC(F)(F)C1
IC50 (DRD3; G protein activation, antagonist, BRET): 16 µM

CC1=NN(/C(=N/c2nnc(C)s2)Nc2ccc(C)c(C)c2)C(c2ccc(F)c(C(F)(F)F)c2)S1 (stereo not drawn)
EC50 (SCTR; cAMP, agonist, TR-FRET): 0.7 µM

COc1cccc(OS(=O)(=O)Oc2cccc(C(=O)NO)c2)c1
Ki (HDAC8; enzyme activity, inhibitor, fluorescence): 0.058 µM

COc1ccccc1N1CCN(Cc2cccnc2Oc2ccc(-c3c(C)c(=O)[nH]c(=O)n3C)c(C)c2)CC1
Ki (ADRA1A; ligand displacement, radioligand): 0.251 µM

CNc1ncc2c(/C=C/C(=O)N3CCC(OC)CC3)nn(Cc3cccc(C(F)(F)F)c3)c2n1
remaining activity (Cyclin-dependent kinase 20, with cyclin T1 (CDK20, Homo sapiens, UniProt Q8IZL9); enzyme activity, inhibitor, radiometric; 1 µM): 104%

CC1=C(O)C(=O)OC1C (stereo not drawn)
EC50 (OR8D1 (Homo sapiens, UniProt Q8WZ84, K295A); cAMP, agonist, luciferase): 3.49 µM

COc1cc2c(cc1OC)C(=O)/C(=C/c1cccs1)C2
IC50 (CES2; enzyme activity, inhibitor, fluorescence; with preincubation): 18.8 µM

O=C(NO)c1cccc(OS(=O)(=O)Oc2ccc(-c3cccc(C(F)(F)F)c3)cc2)c1
Ki (HDAC8; enzyme activity, inhibitor, fluorescence): 1.04 µM

Cc1cc(Oc2ncccc2CN2CCN(c3ccccc3Br)CC2)ccc1-c1c(C)c(=O)[nH]c(=O)n1C
Ki (ADRA1A; ligand displacement, radioligand): 0.663 µM

Cc1[nH]c(C)c(S(=O)(=O)Nc2ccc(C(F)(F)F)c(Br)c2)c1C(=O)N1CCCC1
IC50 (DRD3; G protein activation, antagonist, BRET): 3.3 µM

CCC1=NN(/C(=N/c2nnc(CC)s2)Nc2ccc(C)c(C)c2)C(c2cc(F)c(F)c(F)c2)S1 (stereo not drawn)
EC50 (SCTR; cAMP, agonist, TR-FRET): 0.1 µM

Cc1[nH]c(C)c(S(=O)(=O)Nc2ccc(Cl)c(C(F)(F)F)c2)c1C(=O)N1CCC(F)(F)C1
IC50 (DRD3; β-arrestin recruitment, antagonist): 27 µM

Cc1cc(Oc2ncccc2CN2CCN(c3ccc(O)cc3)CC2)ccc1-c1c(C)c(=O)[nH]c(=O)n1C
Ki (ADRA2C; ligand displacement, radioligand): 0.288 µM

O=C(NO)c1cncc(OS(=O)(=O)Oc2ccc3ccccc3c2)c1
Ki (HDAC8; enzyme activity, inhibitor, fluorescence): 0.276 µM

Cc1[nH]c(C)c(S(=O)(=O)Nc2ccc(C(F)(F)F)c(Cl)c2)c1C(=O)N1CC[C@H](F)C1
IC50 (DRD3; β-arrestin recruitment, antagonist): 4.6 µM

Cc1cc(Oc2ncccc2CN2CCN(c3c(C)cccc3C)CC2)ccc1-c1c(C)c(=O)[nH]c(=O)n1C
Ki (ADRA2B; ligand displacement, radioligand): 0.909 µM

CC(C)(C)c1ccc(OS(=O)(=O)Oc2cc(F)cc(C(=O)NO)c2)cc1
Ki (HDAC6; enzyme activity, inhibitor, fluorescence): 0.933 µM

CCCCC(=O)Nc1ccc(-c2ccc3ncn(CCC)c(=O)c3c2)cn1
remaining binding (KIT (Homo sapiens, UniProt P10721, A829P); binding, competition with immobilised ligand; 0.5 µM): 100%

N#C[C@@]12C[C@@H]1[C@@H](n1cnc3c(N[C@@H](C4CCC4)C4CC4)nc(I)nc31)[C@H](O)[C@@H]2O
Kb (HTR2A (Homo sapiens, UniProt P28223); calcium signal, antagonist): > 10 µM

COc1ccc(N2CCN(Cc3cccnc3Oc3ccc(-c4c(C)c(=O)[nH]c(=O)n4C)c(C)c3)CC2)cc1
Ki (ADRA2B; ligand displacement, radioligand): 0.316 µM

CC1=NN(/C(=N\c2ccc(Cl)cc2)Nc2nnc(C)s2)C(c2ccc(C)cc2)S1 (stereo not drawn)
EC50 (SCTR; cAMP, agonist, TR-FRET): 3.7 µM

Cc1cc(C(C)(C)C)ccc1OS(=O)(=O)Oc1cccc(C(=O)NO)c1
Ki (HDAC6; enzyme activity, inhibitor, fluorescence): 1.59 µM

Cc1cc(Oc2ncccc2CN2CCN(c3cccc(C)c3C)CC2)ccc1-c1c(C)c(=O)[nH]c(=O)n1C
Ki (ADRA2B; ligand displacement, radioligand): 0.0594 µM

Cc1cc(C)c(OS(=O)(=O)Oc2cccc(C(=O)NO)c2)c(C)c1
Ki (HDAC8; enzyme activity, inhibitor, fluorescence): 0.16 µM

Cc1cc(Oc2ncccc2CN2CCN(c3ccccc3O)CC2)ccc1-c1c(C)c(=O)[nH]c(=O)n1C
Ki (ADRA2C; ligand displacement, radioligand): ~0.011 µM and 0.0106 µM

Repeated from above:
C=CC(=O)N1CCC(COCC(=O)N2CCN(c3nc(-c4cnc(N)nc4C(F)F)nc(N4CCOC[C@@H]4C)n3)CC2)CC1
remaining binding (MAPK11 (Homo sapiens, UniProt Q15759); binding, competition with immobilised ligand; 1 µM): 100%

Cc1cc([C@@H](C)Nc2ccccc2C(=O)O)c2nc(N3CCC(F)(F)CC3)c(C#N)c(=O)n2c1
remaining binding (AXL (Homo sapiens, UniProt P30530); binding, competition with immobilised ligand; 10 µM): 83%

Cc1cc(C(C)(C)C)ccc1OS(=O)(=O)Oc1cccc(C(=O)NO)c1
Ki (HDAC6; enzyme activity, inhibitor, fluorescence): 1.59 µM
